Experimental data of several laboratories.
Each numbered part is a random draw from the data of one study; scales do not carry over between parts.
Chain of UniProt Q9H2K8 (whole entry, looked up): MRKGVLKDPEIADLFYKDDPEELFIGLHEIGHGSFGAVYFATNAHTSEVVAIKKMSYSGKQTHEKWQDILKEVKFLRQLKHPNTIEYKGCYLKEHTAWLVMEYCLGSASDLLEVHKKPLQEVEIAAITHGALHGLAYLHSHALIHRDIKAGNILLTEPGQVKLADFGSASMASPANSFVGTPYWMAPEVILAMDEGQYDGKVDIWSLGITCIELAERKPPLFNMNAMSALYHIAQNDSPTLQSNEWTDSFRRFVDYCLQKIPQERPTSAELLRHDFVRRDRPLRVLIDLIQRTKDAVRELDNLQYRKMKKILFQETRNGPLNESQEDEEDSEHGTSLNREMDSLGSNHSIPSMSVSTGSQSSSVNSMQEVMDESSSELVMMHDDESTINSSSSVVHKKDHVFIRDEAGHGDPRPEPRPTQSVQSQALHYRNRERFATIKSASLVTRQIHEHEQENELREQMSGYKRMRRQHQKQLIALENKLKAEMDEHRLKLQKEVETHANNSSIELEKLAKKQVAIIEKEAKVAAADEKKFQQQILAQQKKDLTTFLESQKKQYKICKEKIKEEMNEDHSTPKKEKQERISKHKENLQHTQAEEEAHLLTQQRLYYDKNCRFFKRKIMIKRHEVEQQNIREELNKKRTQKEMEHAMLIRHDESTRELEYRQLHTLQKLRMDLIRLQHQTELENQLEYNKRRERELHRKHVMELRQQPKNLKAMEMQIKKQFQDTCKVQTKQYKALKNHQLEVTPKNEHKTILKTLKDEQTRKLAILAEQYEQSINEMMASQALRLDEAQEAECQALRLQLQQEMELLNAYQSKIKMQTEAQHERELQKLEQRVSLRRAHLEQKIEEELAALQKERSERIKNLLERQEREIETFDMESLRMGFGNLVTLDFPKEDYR

Set 1 — method: RNA Bind-n-Seq; molecule type: RNA; matrix: in vitro; tested at: 365 nM; baseline: no-protein control; direction: higher = stronger binding; quantity: RBNS enrichment (R)
Target: RNA binding protein fox-1 homolog 2, RRM domain, GST-SBP tag (RBFOX2, Homo sapiens, UniProt O43251-10, residues 100-194)
Setting: natural RNA segment, single round, ends assumed
Target sequence (chain): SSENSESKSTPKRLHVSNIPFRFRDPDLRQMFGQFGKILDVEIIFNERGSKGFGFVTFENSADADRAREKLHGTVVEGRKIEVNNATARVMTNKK
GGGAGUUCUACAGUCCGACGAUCUAUAGUUAUUUUCUACACAUGCCAACACACAUGAUGAUAAAGGAACCUUUUCUAGGAGGCAUUGCAGGGUUUCAAUACACAGGACAUGUUCUAGUUACAGAAGCCUUGCUUGGAAUUCUCGGGUGCCAA: 0.235
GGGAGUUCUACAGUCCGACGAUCUGUAAUAAACCAAGCUGUACAAUUUAGUUUAUAAUAGCAGUAUCUGAGCUGCUCCAAAAUAUAUAUAUCAACAGUGGUAAAUACUGUAGAUUUUUAUAUAUAUAUAUAUAUGGAAUUCUCGGGUGCCAA: 0.698
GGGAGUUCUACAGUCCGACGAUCAAAGAAGGUCUAAGAGCUGAUAUUUGCCAAAGUGAUAGAAGAGUUGUUUUUUCCUCUCUACUACCAAGCUUUAAGACAUUAAAAGAAGUCUAGUGUAUUUGAAUAUUUUAUGGAAUUCUCGGGUGCCAA: 0.471
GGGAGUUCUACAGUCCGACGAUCGCAGUGCUCGGAACAGCUGAGGCCGUGGCGGGCUCCACUAACCCCCAGUGUUAUCGUGUUUUAUAGCUGCCUUUCUGUGUCUUACACAGUUUGAGAGUAUAUGUUAAUGAUGGAAUUCUCGGGUGCCAA: 1.15
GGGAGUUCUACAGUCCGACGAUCCCAGAAGACCCAACUGGUGCCAAGGAAUCCCAGCAUGGACAGGCAGGGACCUGUUUCCCAAGAAGAGAGCCUGAUAUUCAAAGGGUGGGACAGCAUCUGCCCGACUUCCCUGGAAUUCUCGGGUGCCAA: 3.21
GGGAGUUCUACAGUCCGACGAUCAAAAGCAUGGGAAGAUUUUUAUUUAUCAAAAUAUAGAGGAAAUGUAGACAAAAUGGAUAUAAAUGAAAAUUACCAUGUUGUAAAACCUUGAAAAUCAGAUUCUAACUGGAUGGAAUUCUCGGGUGCCAA: 10.2
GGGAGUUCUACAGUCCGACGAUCACCUGGCGCAGGCCUCCCAGGAGCUCCAGUGCAGCCCCAUCCCAGGAUGGGUGUCUGGGGAGGGUCAAGGGCUGGGGCUGAGCUUUAAAAUGGUUCCGACUUGUCCCUCUUGGAAUUCUCGGGUGCCAA: 0.416
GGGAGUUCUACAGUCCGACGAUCGAUCUCAUUAAAUGGUGAUUUCUCACUAUGCUCCAGCCCCUCUUAGGUCCUCAUCUCCGUCUUGCAGGUGUUCUGAACUCUCCUUUGGCUAGUCUCUGAUUUUUGAGUCUUGGAAUUCUCGGGUGCCAA: 0.504

Set 2 — method: universal PBM; molecule type: double-stranded DNA, one strand shown; matrix: in vitro; tested at: 600 nM; direction: higher = stronger binding; quantity: E-score
Target: Sal-like protein 4, full length isoform A (SALL4, Homo sapiens, UniProt Q9UJQ4, residues 1-1053)
Chain of UniProt Q9UJQ4 (whole entry, looked up): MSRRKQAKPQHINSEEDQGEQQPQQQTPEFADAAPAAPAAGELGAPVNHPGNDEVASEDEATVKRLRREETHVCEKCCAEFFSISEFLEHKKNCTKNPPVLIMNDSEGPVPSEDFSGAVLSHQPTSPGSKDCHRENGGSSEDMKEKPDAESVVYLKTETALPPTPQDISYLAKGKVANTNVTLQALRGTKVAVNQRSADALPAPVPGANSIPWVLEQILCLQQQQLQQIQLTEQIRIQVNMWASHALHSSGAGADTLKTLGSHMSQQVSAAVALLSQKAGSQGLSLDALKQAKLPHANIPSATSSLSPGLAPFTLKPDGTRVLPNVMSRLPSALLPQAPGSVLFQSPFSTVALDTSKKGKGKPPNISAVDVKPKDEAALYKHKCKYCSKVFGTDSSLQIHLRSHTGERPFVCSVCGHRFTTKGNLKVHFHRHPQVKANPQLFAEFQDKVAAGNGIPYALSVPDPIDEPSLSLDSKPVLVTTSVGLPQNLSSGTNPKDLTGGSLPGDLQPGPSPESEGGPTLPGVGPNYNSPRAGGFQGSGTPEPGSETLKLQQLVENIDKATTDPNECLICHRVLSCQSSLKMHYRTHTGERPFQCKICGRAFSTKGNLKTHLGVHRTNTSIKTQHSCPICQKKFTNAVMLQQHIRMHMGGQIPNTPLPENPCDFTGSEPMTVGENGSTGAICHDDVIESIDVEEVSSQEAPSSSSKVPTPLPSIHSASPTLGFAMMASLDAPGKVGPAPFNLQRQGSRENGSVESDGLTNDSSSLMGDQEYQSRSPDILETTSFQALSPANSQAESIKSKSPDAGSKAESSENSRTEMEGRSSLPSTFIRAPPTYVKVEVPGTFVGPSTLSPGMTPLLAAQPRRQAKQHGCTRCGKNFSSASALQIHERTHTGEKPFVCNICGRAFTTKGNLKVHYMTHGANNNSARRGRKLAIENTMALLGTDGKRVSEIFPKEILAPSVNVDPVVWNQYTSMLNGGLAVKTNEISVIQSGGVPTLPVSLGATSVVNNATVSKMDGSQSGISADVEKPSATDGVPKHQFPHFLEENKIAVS
Setting: 8-mer, flanks averaged, mean of replicates
AAAACTGA: 0.083
AGGGACCA: -0.252
AGCACCGC: -0.329
ATAGTGCA: 0.191
AACTATAA: 0.339
CCTACGGC: -0.269
CCCGAACG: -0.309
GTCCCCAC: -0.34

Set 3 — method: Spec-seq; molecule type: double-stranded DNA, one strand shown; matrix: in vitro; tested at: not given; setting: whole probe, mean of replicates; baseline: not given; direction: lower = stronger binding; quantity: relative binding energy; all sequences stand within: GAGTCGTCTCGTCAGCAC … CCGTAGAGCACTCAGGTC
Target: POU domain, class 5, transcription factor 1, POU domain (Pou5f1, Mus musculus, UniProt P20263, residues 131-289)
Chain of UniProt P20263 (131-289, looked up): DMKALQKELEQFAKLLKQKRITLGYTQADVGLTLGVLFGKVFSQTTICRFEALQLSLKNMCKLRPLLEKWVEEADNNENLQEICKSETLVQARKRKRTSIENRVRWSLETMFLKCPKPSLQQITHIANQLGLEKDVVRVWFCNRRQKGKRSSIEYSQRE
ATGCATTA: -0.946 ln ratio
ATGCGGAT: 0.25 ln ratio
CAAGTAAT: 0.823 ln ratio
ATGCGTAT: -0.204 ln ratio
TCTCTAAT: 0.617 ln ratio
ATGCGGGA: 0.409 ln ratio
ACCATAAT: 0.34 ln ratio
ATCTGTAT: 0.473 ln ratio

Further values, each from its own experiment
NC(=O)c1cccc(-c2cc(Nc3ccc(OC(F)(F)F)cc3)ncn2)c1
remaining activity (Serine/threonine-protein kinase TAO3 (TAOK3, Homo sapiens, UniProt Q9H2K8); enzyme activity, inhibitor; 0.5 µM; baseline: control): 107%

Repeated from above (set 3):
ATGCGGGA: 0.409 ln ratio
ACCATAAT: 0.34 ln ratio
